Measured values gathered from unrelated publications.
Protocols differ between the studies behind these lines. ± marks the error that the study gave.
Target: Mitogen-activated protein kinase 8 (MAPK8, Homo sapiens, UniProt P45983)
Chain of UniProt P45983 (whole entry, looked up): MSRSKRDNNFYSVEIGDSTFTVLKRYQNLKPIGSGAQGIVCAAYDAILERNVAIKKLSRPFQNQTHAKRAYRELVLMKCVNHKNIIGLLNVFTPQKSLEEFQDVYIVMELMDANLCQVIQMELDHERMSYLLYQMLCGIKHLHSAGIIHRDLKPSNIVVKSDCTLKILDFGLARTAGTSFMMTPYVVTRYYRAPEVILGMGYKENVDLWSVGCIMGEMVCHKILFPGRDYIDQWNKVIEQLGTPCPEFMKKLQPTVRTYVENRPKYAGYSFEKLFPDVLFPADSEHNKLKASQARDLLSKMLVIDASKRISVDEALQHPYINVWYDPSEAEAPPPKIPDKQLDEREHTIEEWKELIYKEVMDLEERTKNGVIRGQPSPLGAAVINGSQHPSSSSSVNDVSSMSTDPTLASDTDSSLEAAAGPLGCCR

CC(C)C[C@H](NC(=O)[C@H](CC(N)=O)NC(=O)[C@H](CC(C)C)NC(=O)[C@@H](NC(=O)[C@@H](NC(=O)[C@@H]1CCCN1C(=O)[C@H](CCCNC(=N)N)NC(=O)[C@H](CCCCN)NC(=O)[C@@H]1CCCN1C(=O)[C@H](CCCNC(=N)N)NC(=O)[C@@H]1CCCN1C(=O)[C@@H]1CCCN1C(=O)[C@H](CCCNC(=N)N)NC(=O)[C@H](CCCNC(=N)N)NC(=O)[C@H](CCCNC(=N)N)NC(=O)[C@H](CCC(N)=O)NC(=O)[C@H](CCCNC(=N)N)NC(=O)[C@H](CCCNC(=N)N)NC(=O)[C@H](CCCCN)NC(=O)[C@H](CCCCN)NC(=O)[C@H](CCCNC(=N)N)NC(=O)CN)[C@@H](C)O)[C@@H](C)O)C(=O)N[C@@H](Cc1ccccc1)C(=O)N1CCC[C@H]1C(=O)N[C@@H](CCC(N)=O)C(=O)N[C@H](C(=O)N1CCC[C@H]1C(=O)N[C@@H](CCCNC(=N)N)C(=O)N[C@@H](CO)C(=O)N[C@@H](CCC(N)=O)C(=O)N[C@@H](CC(=O)O)C(=O)N[C@H](C(N)=O)[C@@H](C)O)C(C)C  IC50 (enzyme activity, inhibitor): 0.33 ± 0.01 µM
COC(=O)[C@]1(Cc2ccccc2)C=C(C(=O)OC(C)(C)C)C(=O)CC1  Ki (ligand displacement, FP): 1.2 µM
CC(C)CN(CC(=O)NCCCCCCNC(=O)c1ccc(-c2n[nH]c3ccccc23)cc1)C(=O)C(C)NC(=O)C1COc2ccccc2C1 (stereo not drawn)  IC50 (enzyme activity, inhibitor): 0.154 µM
Cc1cc(NC(=O)c2cccc(-n3cc(NC(=O)Nc4ccccc4)cn3)c2)ccn1  IC50 (enzyme activity, inhibitor, TR-FRET): 1.01 µM
CC(C)C[C@H](NC(=O)[C@H](CC(N)=O)NC(=O)[C@H](CC(C)C)NC(=O)[C@@H](NC(=O)[C@@H](NC(=O)[C@@H]1CCCN1C(=O)[C@H](CCCNC(=N)N)NC(=O)[C@H](CCCCN)NC(=O)[C@@H]1CCCN1)[C@@H](C)O)[C@@H](C)O)C(=O)N[C@@H](Cc1ccccc1)C(=O)NCCCCCC(=O)N[C@@H](CCCNC(=N)N)C(=O)N[C@@H](CCCNC(=N)N)C(=O)N[C@@H](CCCNC(=N)N)C(=O)N[C@@H](CCC(N)=O)C(=O)N[C@@H](CCCNC(=N)N)C(=O)N[C@@H](CCCNC(=N)N)C(=O)N[C@@H](CCCCN)C(=O)N[C@@H](CCCCN)C(=O)N[C@@H](CCCNC(=N)N)C(=O)NCC(N)=O  IC50 (kinase activity, inhibitor, radiometric; pH 7.5, 30 °C, together with: GST-c-Jun substrate): 1.16 ± 0.05 µM
C=C1CC2(C(=O)OC)C=C(C(=O)OC(C)(C)C)C(=O)C1C2 (stereo not drawn)  Ki (ligand displacement, FP): 1 µM
CC(C)C[C@H](NC(=O)[C@H](CC(N)=O)NC(=O)[C@H](CC(C)C)NC(=O)[C@@H](NC(=O)[C@@H](NC(=O)[C@@H]1CCCN1C(=O)[C@H](CCCNC(=N)N)NC(=O)[C@H](CCCCN)NC(=O)[C@@H]1CCCN1)[C@@H](C)O)[C@@H](C)O)C(=O)N[C@@H](Cc1ccccc1)C(N)=O  IC50 (kinase activity, inhibitor, radiometric; pH 7.5, 30 °C, together with: GST-c-Jun substrate): 1 ± 0.05 µM
Cc1cc(NC(=O)c2cccc(-n3cc(NC(=O)Nc4ccc(Cl)cc4)cn3)c2)ccn1  IC50 (enzyme activity, inhibitor, TR-FRET): 1.51 µM
COC(=O)[C@]1(C)C=C(C(=O)OC(C)(C)C)C(=O)CC1  Ki (ligand displacement, FP): 6.5 µM
CC(C)C[C@H](NC(=O)[C@H](CC(N)=O)NC(=O)[C@H](CC(C)C)NC(=O)[C@@H](NC(=O)[C@@H](NC(=O)[C@@H]1CCCN1C(=O)[C@H](CCCNC(=N)N)NC(=O)[C@H](CCCCN)NC(=O)[C@@H]1CCCN1)[C@@H](C)O)[C@@H](C)O)C(=O)N[C@@H](Cc1ccccc1)C(=O)NCCCCCC(=O)N[C@@H](CCCNC(=N)N)C(=O)N[C@@H](CCCNC(=N)N)C(=O)N[C@@H](CCCNC(=N)N)C(=O)N[C@@H](CCCNC(=N)N)C(=O)N[C@@H](CCCNC(=N)N)C(=O)N[C@@H](CCCNC(=N)N)C(=O)N[C@@H](CCCNC(=N)N)C(=O)N[C@@H](CCCNC(=N)N)C(=O)N[C@@H](CCCNC(=N)N)C(N)=O  IC50 (kinase activity, inhibitor, radiometric; pH 7.5, 30 °C, together with: GST-c-Jun substrate): 1.1 ± 0.13 µM
COC(=O)[C@@]1(C)C=C(C(=O)NCc2cccc(C(=O)Nc3ccc(Nc4nccc(-c5cccnc5)n4)c(C)c3)c2)C(=O)CC1  EC50 (target engagement, NanoBRET; HEK293; 2 h, together with: tracer K-5): 1.06 ± 0.15 µM
CC[C@H](C)[C@H](NC(=O)[C@@H]1CCCN1C(=O)[C@@H](NC(=O)[C@H](CC(N)=O)NC(=O)[C@H](CC(C)C)NC(=O)[C@H](CO)NC(=O)[C@H](CC(C)C)NC(=O)[C@H](CCCCN)NC(=O)[C@H](CCCNC(=N)N)NC(=O)[C@H](CCCNC(=N)N)NC(=O)[C@H](CCCNC(=N)N)NC(=O)[C@H](CO)NC(=O)[C@@H]1CCCN1C(=O)[C@H](CO)NC(=O)[C@H](C)NC(=O)[C@@H](N)Cc1ccc(O)cc1)[C@@H](C)CC)C(=O)O  IC50 (kinase activity, inhibitor, SOX fluorogenic; pH 7.5, together with: ATP 1 mM): 1.1 µM

Excerpt of the above:
COC(=O)[C@]1(C)C=C(C(=O)OC(C)(C)C)C(=O)CC1  Ki (ligand displacement, FP): 6.5 µM
C=C1CC2(C(=O)OC)C=C(C(=O)OC(C)(C)C)C(=O)C1C2 (stereo not drawn)  Ki (ligand displacement, FP): 1 µM
